Results from different studies.
Each numbered part is a random draw from the data of one study; scales do not carry over between parts. Changes are numbered by the printed parent chain.

Set 1
Target: CCNB3, cyclin fold, Cln2 fusion (human)
Technique: yeast growth competition, sequencing
Sample: yeast
Setting: strong parent motif
Relative to: not given
Reading: higher = stronger binding
Quantity: normalised enrichment score
Starting sequence: BRCA2 docking peptide (human); PSIKRNLLNEFDR
D12E: 1.32
F11Q: 0.202
N9R: 1.36
K4P: 0.37
I3D: -0.461
L8G: -0.138
N6A: 0.384
N6Q: 0.103
E10D: 1.39
N9D: 1.57
D12S: 0.779
D12R: 0.527
N6F: 0.603

Set 2
Target: Ras GTPase-activating protein-binding protein 1, RRM domain (G3BP1, Homo sapiens, UniProt Q13283)
Chain of UniProt Q13283 (whole entry, looked up): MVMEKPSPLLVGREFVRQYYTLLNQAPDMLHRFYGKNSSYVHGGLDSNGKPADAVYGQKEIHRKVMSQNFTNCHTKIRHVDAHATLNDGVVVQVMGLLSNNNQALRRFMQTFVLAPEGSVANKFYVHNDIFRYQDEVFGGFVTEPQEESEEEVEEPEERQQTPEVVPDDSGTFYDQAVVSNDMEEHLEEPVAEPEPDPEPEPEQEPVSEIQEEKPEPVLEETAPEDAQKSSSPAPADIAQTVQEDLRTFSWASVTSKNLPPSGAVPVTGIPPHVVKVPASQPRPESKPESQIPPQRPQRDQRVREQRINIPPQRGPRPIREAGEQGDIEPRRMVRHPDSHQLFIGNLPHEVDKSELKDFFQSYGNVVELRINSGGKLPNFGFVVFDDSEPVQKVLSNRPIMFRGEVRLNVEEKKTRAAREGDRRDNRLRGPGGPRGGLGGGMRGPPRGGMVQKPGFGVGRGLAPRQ
Technique: RNA Bind-n-Seq
Form: RNA
Sample: in vitro
Tested at: 1 µM
Setting: whole 134-nt RNA, ends assumed
With: 150 mM KCl
Relative to: input library
Reading: higher = stronger binding
Quantity: log2 enrichment
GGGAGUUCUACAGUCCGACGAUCGUCCUGUGCUACACAUCGUAUGUACCGAAUCGGGGAAAGGGGAGGGGUUUUUUUGGGGAAAGUAUUAUGUUACGCCGUUCGGAUCUGCACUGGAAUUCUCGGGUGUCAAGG: 1.05
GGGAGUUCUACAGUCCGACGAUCUCCUGUGCUACACAUCGUAUGUACCGAAUCGGGAAAAAGGGGAAAAAGGGGAAAAAGGGAAAGUAUUAUGUUACGCCGUUCGGAUCUGCAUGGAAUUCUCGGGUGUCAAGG: 0.0741
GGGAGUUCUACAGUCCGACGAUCACCAUGCAGGUGGGCAUCUUUGGGAAGUGGGGCAAGGGGGGGAUAGGGAGGGGGGUAACACUUUGGGAACAGGUGGUCCCAGGUAGUUUCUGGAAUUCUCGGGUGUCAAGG: 0.818
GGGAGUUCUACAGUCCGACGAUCUAACUUUAGAGGAGGAUCUGAUGGAUAUGGCAGUGGACGUGGAUUUGGGGAUGGCUUUAAUGGGUAUGGAGGAGGACCUGGAGGUGGCAAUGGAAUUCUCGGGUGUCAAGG: -0.676
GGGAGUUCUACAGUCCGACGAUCCCUGUGCUACACAUCGUAUGUACCGAAUCGGGUUUUUUUGGGAAAAAGGGUUUUUUUGGGAAAGUAUUAUGUUACGCCGUUCGGAUCUGCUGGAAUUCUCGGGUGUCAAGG: -0.446
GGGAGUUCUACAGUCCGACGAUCUCCUAGUAUUCUGGCCGUUCAGAGAUCUGCAAUCCUCAAGAAGCAGCAACAGCAGCAGCAGCAACAACAACAUCAAGCCUCAUCUAAUAGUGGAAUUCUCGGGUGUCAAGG: -0.00926
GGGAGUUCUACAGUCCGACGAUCCUCAAGUCCUGUGCUACACAUCGUAUGUACCGAAUCGGGAAGGGAAGGAAGGGGAAAGUAUUAUGUUACGCCGUUCGGAUCUGCACUUCCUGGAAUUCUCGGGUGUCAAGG: 0.373
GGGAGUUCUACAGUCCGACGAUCUCCUGUGCUACACAUCGUAUGUACCGAAUCGGGCCCCCGGGGCCCCCGGGGCCCCCGGGAAAGUAUUAUGUUACGCCGUUCGGAUCUGCAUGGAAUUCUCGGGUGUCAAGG: -0.632
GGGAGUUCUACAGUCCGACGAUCACCAUGCAGGUGGGCAUCUUUGGGAAGUGGGGCAAGGGGGGGAUAGGGAGGGGGGUAACACUUUGGGAACAGAAAGUCCCAGGUCGUUUCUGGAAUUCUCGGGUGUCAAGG: -0.491
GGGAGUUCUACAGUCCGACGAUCUCCUCAAGUCCUGUGCUACACAUCGUAUGUACCGAAUCGGGCGGCGGGCGGGAAAGUAUUAUGUUACGCCGUUCGGAUCUGCACUUCCAGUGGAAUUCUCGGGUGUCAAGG: -0.0214

Set 3
Target: Histone acetyltransferase KAT6A, winged helix 1, GST fusion (KAT6A, Homo sapiens, UniProt Q92794, residues 1-85)
Technique: protein binding microarray
Form: double-stranded DNA, one strand shown
Sample: in vitro
Tested at: not given
Setting: 8-mer, flanks averaged, mean of 2 arrays, mostly near background
Relative to: not given
Reading: higher = stronger binding
Quantity: E-score
Residues (chain): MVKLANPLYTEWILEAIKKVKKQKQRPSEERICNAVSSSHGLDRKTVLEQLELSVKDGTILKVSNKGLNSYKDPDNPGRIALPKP
TCGCTGCA: 0.0751
GGTCACTA: -0.101
CGGTGGGC: 0.156
GAGTCTCC: -0.0535
ACGGCACT: 0.366
GCGATCGA: 0.185
CTGAAGCC: 0.0673
GAACGTAA: -0.0568
CCAAATGG: -0.206
GCCCTGCC: 0.0605
TCAGCTCA: 0.0114
CCCCTACG: -0.00581
AGCATCGC: 0.178
GACAAGCC: 0.04
ACATGCTA: -0.125
CCTCCCTC: -0.141
GCGCAGAA: 0.152
TGTCAGAA: -0.148
ACTATGCC: 0.144
AGAGACGG: -0.0519
TAGTACAA: -0.105
ACCCCCAG: -0.152
AACTTGAT: -0.0723
ACGCTAGA: 0.0711
AATCCTAC: -0.0978

Set 4
Target: Sal-like protein 4, full length isoform B (SALL4, Homo sapiens, UniProt Q9UJQ4-2, residues 1-616)
Technique: universal PBM
Form: double-stranded DNA, one strand shown
Sample: in vitro
Tested at: not given
Setting: 8-mer, flanks averaged, mean of replicates
Reading: higher = stronger binding
Quantity: E-score
Construct (chain): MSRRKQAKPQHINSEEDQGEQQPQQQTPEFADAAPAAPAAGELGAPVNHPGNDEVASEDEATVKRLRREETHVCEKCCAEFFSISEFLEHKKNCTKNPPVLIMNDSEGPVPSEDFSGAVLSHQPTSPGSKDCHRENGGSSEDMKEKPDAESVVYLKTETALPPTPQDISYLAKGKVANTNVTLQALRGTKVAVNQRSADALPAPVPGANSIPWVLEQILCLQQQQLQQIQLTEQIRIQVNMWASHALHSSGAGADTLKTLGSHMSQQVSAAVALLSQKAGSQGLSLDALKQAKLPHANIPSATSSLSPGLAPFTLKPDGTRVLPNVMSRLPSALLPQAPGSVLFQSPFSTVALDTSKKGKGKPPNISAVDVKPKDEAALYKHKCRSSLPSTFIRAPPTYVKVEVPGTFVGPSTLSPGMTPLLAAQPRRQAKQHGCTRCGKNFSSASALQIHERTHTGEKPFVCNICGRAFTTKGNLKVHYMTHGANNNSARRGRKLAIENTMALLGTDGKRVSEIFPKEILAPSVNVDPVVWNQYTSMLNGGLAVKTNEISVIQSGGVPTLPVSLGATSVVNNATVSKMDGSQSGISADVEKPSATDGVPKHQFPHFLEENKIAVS
AAACCGAC: -0.171
CTGACTCA: -0.0856
TGATAACA: 0.294
GGTCATAA: 0.315
AAGCGATA: 0.0301
TCTGCTAA: -0.038
ACGTTAGA: 0.143
ACAAGGTA: 0.128
CCGTGCCC: -0.276
AAGGTAAT: 0.212
GGGTGATA: 0.0443
CAGTCACC: -0.179
CCTACCGA: 0.00228
AGGCGCGG: -0.393
AAGGTATT: 0.194
AGGGCAGA: -0.0704
ATGGTTGA: 0.0219
AGCCGGTC: -0.299
ACCTAAGA: 0

Set 5
Target: PABPC1L2, full length, GST fusion (mouse, UniProt A0ABA7IW68)
Technique: RNAcompete
Form: RNA
Sample: in vitro
Tested at: 20 nM
Setting: 7-mer, probes averaged, single round
Relative to: mean of 7-mers
Reading: higher = stronger binding
Quantity: 7-mer Z-score
Construct (chain): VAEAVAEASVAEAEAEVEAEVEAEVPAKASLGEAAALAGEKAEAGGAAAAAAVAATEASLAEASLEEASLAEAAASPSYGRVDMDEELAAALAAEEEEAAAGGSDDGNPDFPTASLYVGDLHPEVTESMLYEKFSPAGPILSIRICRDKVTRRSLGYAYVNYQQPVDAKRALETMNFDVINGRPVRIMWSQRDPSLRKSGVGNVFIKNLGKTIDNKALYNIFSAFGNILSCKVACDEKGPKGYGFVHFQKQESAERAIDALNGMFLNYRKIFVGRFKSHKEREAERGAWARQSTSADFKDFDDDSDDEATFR
CUUUGGU: -0.398
CUGUUCC: -0.34
CCCGUAC: -0.412
AAGUCAG: 0.184
CGAUUCA: -0.141
GAACUGU: -0.195
CGCGGUU: -0.215
GAUGCGG: 0.0442
GGACGCA: 0.278
GAGAGAC: 0.196
CCCGUGU: -0.418
UACUGGG: -0.148
UAGAGUA: -0.108
CCAGACU: -0.34
UUUUGAA: 0.0279
CGAUGAA: 0.0533

A few entries again (set 4):
ACGTTAGA: 0.143
ACAAGGTA: 0.128
CCGTGCCC: -0.276
AAGGTAAT: 0.212
GGGTGATA: 0.0443
CAGTCACC: -0.179
CCTACCGA: 0.00228
AGGCGCGG: -0.393
AAGGTATT: 0.194
